Assay results collected from several papers.
Each numbered part is a random draw from the data of one study; scales do not carry over between parts. Values joined by “and” are separate records of one study, mostly repeats; a detail may differ.
Sequence of UniProt P14616 (whole entry, looked up): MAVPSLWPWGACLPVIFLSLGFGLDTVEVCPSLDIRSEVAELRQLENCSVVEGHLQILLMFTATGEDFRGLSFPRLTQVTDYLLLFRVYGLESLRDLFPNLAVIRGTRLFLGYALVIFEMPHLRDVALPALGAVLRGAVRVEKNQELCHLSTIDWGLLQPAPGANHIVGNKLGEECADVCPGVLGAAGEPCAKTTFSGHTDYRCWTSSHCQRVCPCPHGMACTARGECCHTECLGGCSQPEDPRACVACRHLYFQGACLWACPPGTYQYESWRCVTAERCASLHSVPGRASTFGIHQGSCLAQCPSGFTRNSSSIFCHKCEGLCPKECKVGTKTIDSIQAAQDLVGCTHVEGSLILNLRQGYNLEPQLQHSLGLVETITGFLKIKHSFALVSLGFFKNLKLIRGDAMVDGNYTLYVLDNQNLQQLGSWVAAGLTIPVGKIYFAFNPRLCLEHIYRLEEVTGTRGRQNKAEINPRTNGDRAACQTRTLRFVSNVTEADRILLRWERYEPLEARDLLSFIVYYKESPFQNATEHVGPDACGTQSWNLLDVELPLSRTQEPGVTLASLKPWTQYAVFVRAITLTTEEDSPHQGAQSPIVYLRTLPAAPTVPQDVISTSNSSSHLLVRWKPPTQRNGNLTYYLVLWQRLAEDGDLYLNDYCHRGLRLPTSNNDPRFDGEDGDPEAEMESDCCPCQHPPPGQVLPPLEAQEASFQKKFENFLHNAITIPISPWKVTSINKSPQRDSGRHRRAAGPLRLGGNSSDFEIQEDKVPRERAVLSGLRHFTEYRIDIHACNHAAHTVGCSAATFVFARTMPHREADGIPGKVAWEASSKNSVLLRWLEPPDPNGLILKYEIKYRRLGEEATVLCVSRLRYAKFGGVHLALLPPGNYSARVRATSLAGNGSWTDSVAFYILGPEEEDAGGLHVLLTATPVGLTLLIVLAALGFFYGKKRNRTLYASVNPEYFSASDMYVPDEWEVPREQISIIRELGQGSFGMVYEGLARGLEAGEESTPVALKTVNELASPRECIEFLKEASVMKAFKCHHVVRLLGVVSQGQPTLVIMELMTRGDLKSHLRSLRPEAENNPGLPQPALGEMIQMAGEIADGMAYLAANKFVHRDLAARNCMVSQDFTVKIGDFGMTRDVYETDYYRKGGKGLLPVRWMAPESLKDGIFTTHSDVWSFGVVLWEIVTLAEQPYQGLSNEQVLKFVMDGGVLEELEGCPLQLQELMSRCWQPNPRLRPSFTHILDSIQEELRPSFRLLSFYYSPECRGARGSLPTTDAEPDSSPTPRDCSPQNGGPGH
Sequence of UniProt Q59H18 (whole entry, looked up): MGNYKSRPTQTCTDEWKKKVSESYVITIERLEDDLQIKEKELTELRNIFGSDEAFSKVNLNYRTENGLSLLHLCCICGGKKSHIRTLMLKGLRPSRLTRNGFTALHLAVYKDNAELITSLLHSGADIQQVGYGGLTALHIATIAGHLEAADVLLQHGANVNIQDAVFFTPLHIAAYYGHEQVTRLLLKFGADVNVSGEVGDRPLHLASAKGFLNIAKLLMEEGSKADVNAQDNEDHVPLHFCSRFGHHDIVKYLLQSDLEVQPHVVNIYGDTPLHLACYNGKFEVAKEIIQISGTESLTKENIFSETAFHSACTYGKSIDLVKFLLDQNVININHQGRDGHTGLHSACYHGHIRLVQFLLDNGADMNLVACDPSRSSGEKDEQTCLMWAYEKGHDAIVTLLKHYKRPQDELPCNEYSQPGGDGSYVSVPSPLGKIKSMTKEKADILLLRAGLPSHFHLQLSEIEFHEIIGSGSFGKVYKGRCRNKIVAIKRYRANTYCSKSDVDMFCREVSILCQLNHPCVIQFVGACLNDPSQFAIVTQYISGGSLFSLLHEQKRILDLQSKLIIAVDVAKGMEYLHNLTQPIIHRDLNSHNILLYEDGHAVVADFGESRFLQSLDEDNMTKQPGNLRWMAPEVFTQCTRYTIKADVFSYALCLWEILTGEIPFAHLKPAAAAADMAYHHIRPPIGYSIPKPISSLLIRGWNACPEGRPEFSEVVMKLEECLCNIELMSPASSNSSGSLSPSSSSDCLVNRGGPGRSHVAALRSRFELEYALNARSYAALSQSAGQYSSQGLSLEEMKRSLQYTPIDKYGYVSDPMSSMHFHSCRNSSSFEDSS
Sequence of UniProt Q92630 (whole entry, looked up): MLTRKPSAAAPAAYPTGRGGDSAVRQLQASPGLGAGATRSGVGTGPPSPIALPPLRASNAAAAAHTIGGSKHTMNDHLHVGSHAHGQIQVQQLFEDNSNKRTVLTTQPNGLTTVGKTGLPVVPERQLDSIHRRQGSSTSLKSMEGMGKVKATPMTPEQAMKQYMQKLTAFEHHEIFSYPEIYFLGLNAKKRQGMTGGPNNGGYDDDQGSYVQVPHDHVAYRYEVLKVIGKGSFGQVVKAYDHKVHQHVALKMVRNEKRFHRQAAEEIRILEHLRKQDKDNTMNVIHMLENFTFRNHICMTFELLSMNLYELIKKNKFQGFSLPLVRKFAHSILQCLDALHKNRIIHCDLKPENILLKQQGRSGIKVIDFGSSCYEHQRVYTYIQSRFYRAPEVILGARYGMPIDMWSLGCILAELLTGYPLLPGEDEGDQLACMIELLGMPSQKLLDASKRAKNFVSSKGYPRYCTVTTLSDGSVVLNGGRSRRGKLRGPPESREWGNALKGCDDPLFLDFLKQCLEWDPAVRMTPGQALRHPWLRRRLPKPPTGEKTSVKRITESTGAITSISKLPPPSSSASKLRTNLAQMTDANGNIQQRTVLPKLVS
Sequence of UniProt O43353 (whole entry, looked up): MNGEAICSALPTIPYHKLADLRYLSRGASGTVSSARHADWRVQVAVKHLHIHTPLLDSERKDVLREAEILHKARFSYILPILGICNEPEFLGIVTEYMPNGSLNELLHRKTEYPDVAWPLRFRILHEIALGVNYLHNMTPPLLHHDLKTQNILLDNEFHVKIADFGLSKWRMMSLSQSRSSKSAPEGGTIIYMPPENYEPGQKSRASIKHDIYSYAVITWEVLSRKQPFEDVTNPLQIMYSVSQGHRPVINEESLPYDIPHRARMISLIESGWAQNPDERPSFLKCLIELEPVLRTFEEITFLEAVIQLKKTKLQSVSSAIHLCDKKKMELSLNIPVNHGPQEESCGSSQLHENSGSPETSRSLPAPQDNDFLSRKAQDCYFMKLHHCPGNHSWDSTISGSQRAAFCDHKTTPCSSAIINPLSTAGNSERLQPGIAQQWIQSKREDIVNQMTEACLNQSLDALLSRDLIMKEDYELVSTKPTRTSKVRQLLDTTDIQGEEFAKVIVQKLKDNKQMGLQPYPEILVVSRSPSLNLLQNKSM
Sequence of UniProt P53350 (whole entry, looked up): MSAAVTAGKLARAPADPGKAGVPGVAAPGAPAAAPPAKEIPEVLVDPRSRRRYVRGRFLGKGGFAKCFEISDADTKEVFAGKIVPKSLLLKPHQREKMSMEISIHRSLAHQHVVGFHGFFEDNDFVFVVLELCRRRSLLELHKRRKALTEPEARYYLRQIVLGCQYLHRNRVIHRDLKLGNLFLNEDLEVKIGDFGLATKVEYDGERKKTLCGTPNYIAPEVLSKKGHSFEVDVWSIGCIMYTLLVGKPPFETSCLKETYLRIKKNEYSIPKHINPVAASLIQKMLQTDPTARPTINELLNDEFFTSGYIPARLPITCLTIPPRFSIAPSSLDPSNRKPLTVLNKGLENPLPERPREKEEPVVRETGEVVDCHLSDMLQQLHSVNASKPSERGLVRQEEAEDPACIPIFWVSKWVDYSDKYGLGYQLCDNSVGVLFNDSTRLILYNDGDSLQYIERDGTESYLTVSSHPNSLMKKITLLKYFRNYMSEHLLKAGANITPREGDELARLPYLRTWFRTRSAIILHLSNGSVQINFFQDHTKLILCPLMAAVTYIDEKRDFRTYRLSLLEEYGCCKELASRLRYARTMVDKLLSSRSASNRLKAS

Study 1
Compound: CCC(=O)N[C@@H]1CC[C@H](C(=O)N(C)c2ccc(-c3nc4ccccc4o3)cc2)C1
Tested at: 1 µM
Measurement: remaining binding
TNK1 (Homo sapiens, UniProt Q13470); cell-free assay, competition with immobilised ligand: 100%
EPHA2 (Homo sapiens, UniProt P29317); cell-free assay, competition with immobilised ligand: 94%
DYRK1A (Homo sapiens, UniProt Q13627); cell-free assay, competition with immobilised ligand: 98%
EPHB4 (Homo sapiens, UniProt P54760); cell-free assay, competition with immobilised ligand: 100%
CAMK1 (Homo sapiens, UniProt Q14012); cell-free assay, competition with immobilised ligand: 100%
TNNI3K (Homo sapiens, UniProt Q59H18); cell-free assay, competition with immobilised ligand: 99%
AAK1 (Homo sapiens, UniProt Q2M2I8); binding: 100%
FLT3 (Homo sapiens, UniProt P36888, F691L/ITD); cell-free assay, competition with immobilised ligand: 76%
CIT (Homo sapiens, UniProt O14578); cell-free assay, competition with immobilised ligand: 93%
BMX (Homo sapiens, UniProt P51813); cell-free assay, competition with immobilised ligand: 98%
Receptor-type tyrosine-protein kinase FLT3, autoinhibited (FLT3, Homo sapiens, UniProt P36888); cell-free assay, competition with immobilised ligand: 84%
Tyrosine-protein kinase JAK2, JH1 (JAK2, Homo sapiens, UniProt O60674); cell-free assay, competition with immobilised ligand: 100%
EPHB6 (Homo sapiens, UniProt O15197); cell-free assay, competition with immobilised ligand: 100%
STK4 (Homo sapiens, UniProt Q13043); cell-free assay, competition with immobilised ligand: 90%
CLK1 (Homo sapiens, UniProt P49759); cell-free assay, competition with immobilised ligand: 100%
Ribosomal protein S6 kinase alpha-4, N-terminal kinase domain (RPS6KA4, Homo sapiens, UniProt O75676); cell-free assay, competition with immobilised ligand: 100%

Study 2
Structure (SMILES): Cc1cc2c(C(N)=O)c(N)n(-c3c(C)ccc(O)c3C)c2nc1C
Measurement: inhibition
RKO; cell proliferation; 3333.33 nM: 98.6%
KLE; cell proliferation; 10000 nM: 96.4%
HCC1569; cell proliferation; 1111.11 nM: 94.1%
MKN-1; cell proliferation; 10000 nM: 99.8%
KLE; cell proliferation; 41.15 nM: -0.07% and 1.42% and -0.56%
SRC (Homo sapiens, UniProt P12931); enzyme activity, inhibitor, TR-FRET; 13.72 nM: 67.5%
MKN-1; cell proliferation; 3333.33 nM: 99.7%
HCC1806; cell proliferation; 3333.33 nM: 99.2%
KLE; cell proliferation; 4.572 nM: 1.98% and -2.23% and -3.88%
NCI-H1568; cell proliferation; 10000 nM: 96.4%
KLE; cell proliferation; 13.72 nM: -0.05% and -3.01% and -2.99%
U-251 MG; cell growth; 10000 nM: 97.4%
RKO; cell proliferation; 1.524 nM: -1.71% and 6.69%
LN-229; cell proliferation; 123.5 nM: -3.78% and -5.69% and -5.31%
MDA-MB-436; cell proliferation; 4.57 nM: -3.99% and -1.14% and -3.13%

Study 3
Structure (SMILES): CN1CCN(c2ccc3nc(-c4c(N)c5c(F)cccc5[nH]c4=O)[nH]c3c2)CC1
Effect on: enzyme activity
Mode: inhibitor
Tested at: 0.5 µM
Relative to: control
Measurement: remaining activity
PHKG2 (Homo sapiens, UniProt P15735): 87.6%
HCK (Homo sapiens, UniProt P08631): 29.9%
PLK1 (Homo sapiens, UniProt P53350): 96.9%
NTRK2 (Homo sapiens, UniProt Q16620): 5.72%
RIPK2 (Homo sapiens, UniProt O43353): 93%
DYRK2 (Homo sapiens, UniProt Q92630): 105%
MAP4K5 (Homo sapiens, UniProt Q9Y4K4): 3.26%
MAP3K9 (Homo sapiens, UniProt P80192): 52.4%
ULK1 (Homo sapiens, UniProt O75385): 20.4%
INSRR (Homo sapiens, UniProt P14616): 67.1%
TAOK1 (Homo sapiens, UniProt Q7L7X3): 98.4%
SGK3 (Homo sapiens, UniProt Q96BR1): 98.4%
VRK1 (Homo sapiens, UniProt Q99986): 98.5%
RAF1 (Homo sapiens, UniProt P04049): 115%
PDGFRB (Homo sapiens, UniProt P09619): 17.2%

Study 4
Cell line: mouse MPNST tumor cells
Technique: high-content immunofluorescence imaging
Refers to: nuclear SOX9
Tested at: 10 µM
Time: 12 h
Setting: mean of 2 replicates
Relative to: DMSO control
Reading: higher = more nuclear SOX9
Measurement: nuclear SOX9 intensity
COc1ccc(NS(=O)(=O)c2sc3ccc(Cl)cc3c2C)cc1N1CCNCC1: 169 % of DMSO
CCCN1CCC=C(c2cc(-c3ccc(C)cc3)no2)C1: 99.7 % of DMSO
CCN1CCC[C@H]1CNC(=O)c1c(OC)ccc(Br)c1OC: 95.8 % of DMSO
COc1ccc(C(=O)Nc2c(Cl)cncc2Cl)cc1OC1CCCC1: 104 % of DMSO
C[C@@](Cc1ccc(O)c(O)c1)(NN)C(=O)O: 114 % of DMSO
COc1ccc(Cl)c(Nc2ncnc3cc(OCC4CCN(C)CC4)c(OC)cc23)c1: 218 % of DMSO
Oc1ccc(/C=C/c2cc(O)cc(O)c2)cc1: 101 % of DMSO
Cc1ccc(-c2ncc(Cl)cc2-c2ccc(S(C)(=O)=O)cc2)cn1: 105 % of DMSO
O=c1[nH]cnc2c1ncn2[C@H]1CC[C@@H](CO)O1: 101 % of DMSO
O=[N+]([O-])c1cc(Cl)ccc1S(=O)(=O)c1ccccc1: 66.9 % of DMSO
CCN(CC)C(=O)C1(c2ccccc2)CC1CN (stereo not shown): 75.4 % of DMSO
N=C(N)NCC1COC2(CCCCC2)O1 (stereo not shown): 101 % of DMSO
O=C(NCCS(=O)(=O)c1ccc(C(F)(F)F)cn1)c1ccc(Cl)cc1: 112 % of DMSO
COc1cc2c(cc1OC)CN(C(=O)[C@@H](NCc1ccncc1)C(C)(C)C)CC2: 95.5 % of DMSO
CC(C)c1ccc(NC(=O)Cn2cnc3c2c(=O)n(C)c(=O)n3C)cc1: 102 % of DMSO

Repeated from above (study 1):
CAMK1 (Homo sapiens, UniProt Q14012); cell-free assay, competition with immobilised ligand: 100%
FLT3 (Homo sapiens, UniProt P36888, F691L/ITD); cell-free assay, competition with immobilised ligand: 76%
EPHA2 (Homo sapiens, UniProt P29317); cell-free assay, competition with immobilised ligand: 94%
Tyrosine-protein kinase JAK2, JH1 (JAK2, Homo sapiens, UniProt O60674); cell-free assay, competition with immobilised ligand: 100%
Ribosomal protein S6 kinase alpha-4, N-terminal kinase domain (RPS6KA4, Homo sapiens, UniProt O75676); cell-free assay, competition with immobilised ligand: 100%
STK4 (Homo sapiens, UniProt Q13043); cell-free assay, competition with immobilised ligand: 90%
Receptor-type tyrosine-protein kinase FLT3, autoinhibited (FLT3, Homo sapiens, UniProt P36888); cell-free assay, competition with immobilised ligand: 84%
TNNI3K (Homo sapiens, UniProt Q59H18); cell-free assay, competition with immobilised ligand: 99%
